Experimental data pooled from the literature.
Compare with care: the assays were run in different laboratories.
Cell line: NCI-H23
Technique: SRB

| Structure (SMILES) | test | setting | scale | endpoint | value |
| --- | --- | --- | --- | --- | --- |
| COc1cc(CNC(=O)C[C@H](C)CCC=C(C)C)ccc1OCc1cn(-c2cccc(Cl)c2)nn1 |  | 10 µM, 48 h |  | growth percent | 72.9% |
| CC(=O)OC[C@H]1O[C@@H](Sc2sc(C(=O)c3ccc(C)cc3)c(N)c2-c2nc3ccccc3s2)[C@H](OC(C)=O)[C@@H](OC(C)=O)[C@H]1OC(C)=O |  | 10 µM, 48 h | relative to: untreated | growth | 83.7% |
| CC(=C(c1ccc(O)cc1)c1ccc(Cl)cc1)c1ccc(Cl)cc1 | cell growth or viability |  |  | GI50 | 0.76 µM |
| COc1cc(CNC(=O)C[C@H](C)CCC=C(C)C)ccc1OCc1cn(-c2ccccc2[N+](=O)[O-])nn1 |  | 10 µM, 48 h |  | growth percent | 62.5% |
| CC/C=C\C/C=C\C/C=C\C/C=C\C/C=C\C/C=C\CCC(=O)Nc1ccn(C2OC(CO)C(O)C2(F)F)c(=O)n1 (stereo not shown) | cell growth or viability |  |  | GI50 | 0.0157 µM |
| COc1ccc(C2=Nn3c(NN=C4C(=O)N(C)c5ccc(Br)cc54)nnc3SC2)cc1 | cell growth or viability | 10 µM |  | inhibition | 19% |
| CC(=O)OC[C@H]1O[C@@H](Sc2sc(C(=O)c3ccc(Br)cc3)c(N)c2-c2nc3ccccc3s2)[C@H](OC(C)=O)[C@@H](OC(C)=O)[C@@H]1OC(C)=O |  | 10 µM, 48 h | relative to: untreated | growth | 23.8% |
| CCC(=C(c1ccc(Cl)cc1)c1ccc(OCCCN(C)C)cc1)c1ccc(OC)cc1 | cell growth or viability |  |  | GI50 | 7.43 µM |
| COc1cc(CNC(=O)C[C@H](C)CCC=C(C)C)ccc1OCc1cn(-c2ccccc2Cl)nn1 |  | 10 µM, 48 h |  | growth percent | 64.5% |
| COc1ccc2c(c1)/C(=N\Nc1nnc3n1N=C(c1ccccc1)CS3)C(=O)N2 | cell growth or viability | 10 µM |  | inhibition | 35% |

Repeated from above:
| Structure (SMILES) | test | setting | scale | endpoint | value |
| --- | --- | --- | --- | --- | --- |
| CC(=O)OC[C@H]1O[C@@H](Sc2sc(C(=O)c3ccc(Br)cc3)c(N)c2-c2nc3ccccc3s2)[C@H](OC(C)=O)[C@@H](OC(C)=O)[C@@H]1OC(C)=O |  | 10 µM, 48 h | relative to: untreated | growth | 23.8% |
